Earlier results that unrelated publications cite.
Protocols differ between the studies behind these lines.
CDK2: Cyclin-dependent kinase 2 (CDK2, Homo sapiens, UniProt P24941)
PTGS2: Prostaglandin G/H synthase 2 (PTGS2, Homo sapiens, UniProt P35354)
Sequence of UniProt P35354 (whole entry, looked up): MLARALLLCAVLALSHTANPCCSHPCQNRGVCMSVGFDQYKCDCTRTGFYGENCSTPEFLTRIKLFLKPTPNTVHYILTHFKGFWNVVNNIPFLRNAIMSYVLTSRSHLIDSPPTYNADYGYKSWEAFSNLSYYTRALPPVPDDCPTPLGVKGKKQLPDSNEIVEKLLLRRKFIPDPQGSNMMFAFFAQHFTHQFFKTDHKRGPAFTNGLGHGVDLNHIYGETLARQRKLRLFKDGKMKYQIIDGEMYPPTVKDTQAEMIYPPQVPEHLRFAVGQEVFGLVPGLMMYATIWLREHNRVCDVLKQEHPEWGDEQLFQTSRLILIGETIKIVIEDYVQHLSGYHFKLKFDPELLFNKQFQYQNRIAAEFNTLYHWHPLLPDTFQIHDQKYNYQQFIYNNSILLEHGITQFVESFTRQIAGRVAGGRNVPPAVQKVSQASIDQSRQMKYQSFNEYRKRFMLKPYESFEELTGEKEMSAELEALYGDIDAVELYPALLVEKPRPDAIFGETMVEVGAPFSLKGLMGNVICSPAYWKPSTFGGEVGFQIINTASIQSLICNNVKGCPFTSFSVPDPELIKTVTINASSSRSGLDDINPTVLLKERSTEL
Sequence of UniProt P28335 (whole entry, looked up): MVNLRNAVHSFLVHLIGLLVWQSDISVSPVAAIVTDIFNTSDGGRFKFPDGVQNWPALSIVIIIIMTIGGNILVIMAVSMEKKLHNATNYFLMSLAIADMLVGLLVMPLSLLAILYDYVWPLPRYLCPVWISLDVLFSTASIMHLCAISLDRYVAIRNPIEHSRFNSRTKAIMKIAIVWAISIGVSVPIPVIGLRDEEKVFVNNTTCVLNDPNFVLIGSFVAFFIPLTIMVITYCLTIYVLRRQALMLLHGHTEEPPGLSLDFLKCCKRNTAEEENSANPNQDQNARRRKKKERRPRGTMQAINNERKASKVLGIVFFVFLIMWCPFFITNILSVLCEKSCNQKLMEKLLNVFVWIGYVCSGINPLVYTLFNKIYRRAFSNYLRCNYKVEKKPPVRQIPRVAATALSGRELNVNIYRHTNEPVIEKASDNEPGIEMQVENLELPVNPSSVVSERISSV
Sequence of UniProt Q99814 (whole entry, looked up): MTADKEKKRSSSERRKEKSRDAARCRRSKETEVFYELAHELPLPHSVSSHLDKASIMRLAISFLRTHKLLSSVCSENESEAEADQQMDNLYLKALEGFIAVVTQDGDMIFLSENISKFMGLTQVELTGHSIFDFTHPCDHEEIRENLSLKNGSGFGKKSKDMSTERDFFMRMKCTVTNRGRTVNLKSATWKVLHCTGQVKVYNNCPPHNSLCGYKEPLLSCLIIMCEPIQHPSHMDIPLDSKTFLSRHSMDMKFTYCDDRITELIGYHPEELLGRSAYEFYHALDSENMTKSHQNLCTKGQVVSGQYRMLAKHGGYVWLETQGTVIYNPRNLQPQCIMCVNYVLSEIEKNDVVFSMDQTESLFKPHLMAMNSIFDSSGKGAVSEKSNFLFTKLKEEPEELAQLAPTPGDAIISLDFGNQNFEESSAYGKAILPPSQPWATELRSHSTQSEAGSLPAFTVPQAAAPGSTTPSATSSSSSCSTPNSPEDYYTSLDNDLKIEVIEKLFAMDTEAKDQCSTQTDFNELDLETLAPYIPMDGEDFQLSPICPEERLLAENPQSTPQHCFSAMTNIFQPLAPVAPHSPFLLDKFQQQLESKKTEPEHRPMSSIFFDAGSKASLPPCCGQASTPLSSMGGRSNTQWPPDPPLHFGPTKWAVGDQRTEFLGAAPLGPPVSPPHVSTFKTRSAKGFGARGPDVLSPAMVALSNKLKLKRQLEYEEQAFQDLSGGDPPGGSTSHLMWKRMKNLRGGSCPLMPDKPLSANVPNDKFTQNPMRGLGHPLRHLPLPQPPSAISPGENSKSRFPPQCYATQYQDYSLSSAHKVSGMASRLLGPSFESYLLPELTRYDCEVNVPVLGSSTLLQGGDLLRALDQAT

SMILES	target	assay	setting	quantity	value
CC1(C)Cn2nc(-c3ccc(F)cn3)c(-c3ccnc4[nH]ncc34)c2CO1	CSNK1E	binding	–	Kd	137 nM
O=C(CCCCCCC(=O)Nc1ccccc1)NO	HDAC complex	binding	ex vivo	Kd	400 nM
CCc1cccc(CC)c1NC(=O)c1nn(C)c2c1CCc1cnc(Nc3ccc(C(=O)N4CCCN(C)CC4)cc3OC)nc1-2	CDK2	–	–	IC50	3620 nM
N=C(N)NCCC[C@H](N)C(=O)O	UBR-box	binding	–	Kd	~200000 nM
CC(=O)N[C@@H](CC(N)=O)C(=O)N[C@@H](CC(C)C)C(=O)N[C@]1(C)CCCCCCC=CCCC[C@@](C)(C(=O)N[C@@H](CCC(=O)O)C(=O)N[C@@H](CC(C)C)C(=O)N[C@@H](CC(N)=O)C(N)=O)NC(=O)[C@H](CC(C)C)NC(=O)[C@H](CC(C)C)NC(=O)[C@H](CCCNC(=N)N)NC(=O)[C@H](CC(=O)O)NC(=O)[C@H](CC(C)C)NC(=O)[C@H](CCC(=O)O)NC1=O	focal adhesion kinase FAT domain	binding	–	Kd	800 nM
O=[N+]([O-])c1cc(C(F)(F)F)ccc1NCc1ccsc1	Endothelial PAS domain-containing protein 1, PAS-B domain (EPAS1, Homo sapiens, UniProt Q99814)	binding, isothermal titration calorimetry	<0.1% DMSO	Kd	600 nM
CNC(=O)[C@@]12C[C@@H]1[C@@H](n1cnc3c(NCc4cccc(Cl)c4)nc(C#Cc4ccc(F)c(F)c4)nc31)[C@H](O)[C@@H]2O	HTR2C (Homo sapiens, UniProt P28335)	radioligand binding (PDSP)	–	Ki	1000 to 10000 nM
CN1C/C=C/CCOc2cc(F)cc(c2)-c2ccnc(n2)Nc2cccc(c2)C1	CDK2	–	–	IC50	9 nM
CCc1ccccc1-c1ccc(C(=O)NC[C@@H](N)C(=O)O)o1	Glutamate receptor ionotropic, NMDA 1, with GluN2D (Grin1, Rattus norvegicus, UniProt P35439)	–	with: saturating glutamate	EC50	150 nM
COc1ccc2c(c1)c(CC(=O)O)c(C)n2C(=O)c1c(Cl)cc(Cl)cc1Cl	PTGS2	inhibitor	–	IC50	500 nM
CN1CCN(c2ccc(Nc3ncc4cc(C#N)c(=O)n(C5CCCC5)c4n3)cc2)CC1	CDK2	–	–	IC50	159 nM
Cc1nccn1CCC(C(N)=O)(c1ccccc1)c1ccccc1	muscarinic M3 receptor	antagonist	–	Kb	0.317 nM
CCOc1ccc(CC(=O)N[C@@H](CCCNC(=N)N)C(=O)N[C@@H](CC(C)C)C(=O)N[C@@H](CC(N)=O)C(=O)N[C@@H](Cc2ccc(F)cc2)C(=O)O)cc1OCC	CDK2	–	–	IC50	5200 nM
CO[C@H]1C[C@@H]2CC[C@@H](C)[C@@](O)(O2)C(=O)C(=O)N2CCCC[C@H]2C(=O)O[C@H]([C@H](C)C[C@@H]2CC[C@@H](OC(=O)NCCOCCOCCOCCOCCOCCOCCOCCOCCC(=O)N3CCc4cc(Cn5nc(-c6ccc7oc(N)nc7c6)c6c(N)ncnc65)ccc4C3)[C@H](OC)C2)C[C@@H](O)[C@H](C)/C=C(\C)[C@@H](O)[C@@H](OC)C(=O)[C@H](C)C[C@H](C)/C=C/C=C/C=C/1C	FKBP12	binding	–	Kd	65 nM
CC(C)(C)c1cc(C=C2C(=O)C=CC2=O)cc(C(C)(C)C)c1O	PTGS2	inhibitor	–	IC50	1160 nM
Cc1cc2nc(n1)Nc1cccc(c1)CN(C)C/C=C/CCOc1cccc-2c1	CDK2	–	–	IC50	4700 nM
COc1cc(C=CC(=O)O)ccc1O	PTGS2	inhibitor	–	IC50	63200 nM
C[C@H](CCCC(C)(C)O)[C@H]1CC[C@H]2[C@@H]3CC=C4C[C@@H](O)CC[C@]4(C)[C@H]3CC[C@]12C	Osh4 protein, yeast	binding	–	Kd	55 nM
Cc1c(C#N)c(NCCO)nc2ncnc(N)c12	CDK2	–	–	IC50	29500 nM
CC(C)(Oc1ccc(C(=O)c2ccc(Cl)cc2)cc1)C(=O)O	PTGS2	inhibitor	–	IC50	48 nM
CN1C/C=C/COCc2cccc(c2)-c2ccnc(n2)Nc2cccc(c2)C1	CDK2	–	–	IC50	660 nM
CCN1CC/C(=C\c2cc(C(C)(C)C)c(O)c(C(C)(C)C)c2)S1(=O)=O	PTGS2	inhibitor	–	IC50	11 nM
CCS(=O)(=O)c1ccc2cc1CN(C)C/C=C/CCOc1cccc(c1)-c1ccnc(n1)N2	CDK2	–	–	IC50	22 nM
CCCN1CC(c2ccc(S(C)(=O)=O)cc2)=C(c2ccc(C)cc2)C1=O	PTGS2	inhibitor	–	IC50	18 nM

Repeated from above:
SMILES	target	assay	setting	quantity	value
N=C(N)NCCC[C@H](N)C(=O)O	UBR-box	binding	–	Kd	~200000 nM
CO[C@H]1C[C@@H]2CC[C@@H](C)[C@@](O)(O2)C(=O)C(=O)N2CCCC[C@H]2C(=O)O[C@H]([C@H](C)C[C@@H]2CC[C@@H](OC(=O)NCCOCCOCCOCCOCCOCCOCCOCCOCCC(=O)N3CCc4cc(Cn5nc(-c6ccc7oc(N)nc7c6)c6c(N)ncnc65)ccc4C3)[C@H](OC)C2)C[C@@H](O)[C@H](C)/C=C(\C)[C@@H](O)[C@@H](OC)C(=O)[C@H](C)C[C@H](C)/C=C/C=C/C=C/1C	FKBP12	binding	–	Kd	65 nM
CC(C)(Oc1ccc(C(=O)c2ccc(Cl)cc2)cc1)C(=O)O	PTGS2	inhibitor	–	IC50	48 nM
CCOc1ccc(CC(=O)N[C@@H](CCCNC(=N)N)C(=O)N[C@@H](CC(C)C)C(=O)N[C@@H](CC(N)=O)C(=O)N[C@@H](Cc2ccc(F)cc2)C(=O)O)cc1OCC	CDK2	–	–	IC50	5200 nM
